Published values collected from several papers.
Protocols differ between the studies behind these lines. Several values in a cell are separate wells, animals, samples, runs or records. ± marks the error that the study gave.

SMILES | test | test system | conditions | how to read | quantity | value
CN1CCCNC(=O)c2cccc(c2)C(=O)NCCCN(C)CCCNc2cccc3c2C(=O)c2cccc(c2C3=O)NCCC1 | – | KSN/Slc nude mice, SAS xenograft | dose not given, day 8, 192 h | – | tumour volume | 289 mm3 and 240 mm3 and 377 mm3 and 246 mm3 and 188 mm3
CO.Cc1ccc2c(Cl)cc(Cl)c([O-])c2n1.Cc1ccc2c(Cl)cc(Cl)c([O-])c2n1.[Co+2].c1ccc2nc3c4cccnc4c4ncccc4c3nc2c1 | – | nude mouse, HeLa xenograft | 2.0 mg/kg, start of treatment | – | tumour volume | 82.4 ± 27 mm3
NC[C@@H](C(=O)Nc1ccc(-c2cn[nH]c2)cc1)c1ccccc1 | tonometry | NZW rabbit, magnetic bead-induced ocular hypertension | ocular, 0.03%, 48 h | – | IOP | 35.6 mmHg
COc1cnc2cccc(N3CCc4c(cc(Cn5ccnc5)cc4-c4cn(C)nc4C(F)(F)F)C3=O)c2c1 | – | BALB/c nude mice, MV4-11 xenograft | intraperitoneal, 100 mg/kg, day 10 | – | tumour volume | 163 mm3 and 106 mm3 and 155 mm3 and 158 mm3 and 142 mm3
N[C@@H](CNC(=O)N[C@@H](CS)C(=O)NCC(=O)O)C(=O)O | Western blot | mouse C57BL/6, Aβ i.c.v. model, brain | intranasal, dose not given | – | AGE accumulation | decreased
COc1ccc(NC(=O)c2ccc3[nH]c(-c4ccc(N(C)C)cc4)nc3c2)cn1 | – | Lewis lung carcinoma, mice, syngeneic graft, subcutaneous | intraperitoneal, 25 mg/kg daily, day 3 | – | tumour volume | 164 mm3 and 222 mm3 and 209 mm3 and 144 mm3 and 111 mm3
CC(=O)[O-].O.O.O.O.[Ni+2].[O-]c1ccc(Br)cc1C=NCCN1CCOCC1 | nitric oxide scavenging | – | 40 µM | – | inhibition | 15.3%
CC(C)c1ccc(N(C)c2ccc3c(c2)OCC[C@H]3CNc2cnccc2C(=O)O)cc1 | – | mouse, sample A gastric PDX | 15 mg/kg, day 38 | – | tumour growth inhibition | 69%
COc1ccccc1-c1ccncc1C(=O)Nc1nnc(OCc2ccc(Cl)cc2)s1 | – | Brca1 Δ11/Δ11 Polq-/- MEF, Mus musculus | 5 µM | reference: 0 µM | colony survival | 90.3%
COc1cc(N2CCN(C(=O)C3CCCN3)CC2)ccc1Nc1ncc(Cl)c(Nc2ccccc2P(C)(C)=O)n1 (centres unmarked) | – | nude mice, NCI-H3122 xenograft | oral, 25 mg/kg every two days, day 13 | – | tumour volume | 189 mm3 and 523 mm3 and 241 mm3 and 51.7 mm3 and 279 mm3
CN1CCC[C@]1(C)/C=C/S(=O)(=O)NC(=O)Nc1c2c(cc3c1CCC3)CCC2 | – | human, whole blood ex vivo | 100 mg twice daily, day 14, 24 h, multiple ascending dose, together with: LPS and ATP | – | IL-1β inhibition | 94.7%
CCC(=O)N[C@@H](C)C(=O)OCC(=O)N[C@@H](C)C(=O)O | – | water | pH 6, 50 °C | – | chain scission rate constant | 0.0083 h⁻¹
CC[C@H](C)[C@H](NC(=O)[C@@H](NC(=O)c1ccnc(Cl)c1Cl)C(C)(C)C)C(=O)N[C@H](C(=O)N[C@H](C(=O)N[C@H](C(=O)N[C@@H](CCC(N)=O)C(=O)N[C@@H](Cc1c[nH]cn1)C(=O)N[C@H](CC(C)C)C(=O)N[C@@H](CO)C(=O)NCCOCCOCC(=O)N[C@@H](CCCCNC(=O)CC[C@@H]1NC(=O)[C@@H](CCCNC(=N)N)NC(=O)[C@H](CCCNC(=N)N)NC(=O)[C@@H](CCCNC(=N)N)NC(=O)[C@H](CCCNC(=N)N)NC(=O)[C@H](Cc2ccc3ccccc3c2)NC(=O)[C@@H](Cc2ccccc2)NC1=O)C(N)=O)[C@@H](C)O)[C@@H](C)CC)C(C)(C)O | – | mouse, acute lung injury, LPS-induced | intranasal, 3 mg/kg, 6 h, together with: LPS 4 mg/kg intranasal | reference: vehicle | BALF TNF-alpha and IL-6 levels | decreased
O=S(=O)(NCc1ccncc1)c1ccc(C2CCCCC2)cc1 | Y maze | CK littermate mice | ip, 0.3 mg/kg daily, 6 wk | above chance | novel arm preference | 16.3 ± 11.1%
COc1cc(O)ccc1CCC(c1ccc(O)cc1)c1cc2c(c(C)c1O)OC(c1ccc(O)cc1)CC2 (mixture of isomers) | – | human blood | 10 µM, together with: A23187 | – | 4-HDHA level | 65 ± 32 pg/mL
O=[N+]([O-])[O-].O=c1c(C=NN=C([S-])Nc2ccccc2)coc2ccccc12.[Cu+2].c1ccc(-c2ccccn2)nc1 | DNA cleavage | supercoiled pUC19 DNA | 100 µM, 4 h, 37 °C, no reducing agent, together with: DNA 40 µM | – | nicked circular DNA form | 10%
COc1ccc2cc3[n+](cc2c1OCCCOC(=O)c1cscn1)CCc1cc2c(cc1-3)OCO2 | ELISA | hyperlipidemic hamster | dose not given | – | plasma PCSK9 level | decreased
C=CC(=O)N1CC2C(=O)N(CCN(C)C)c3c(c4cc(Cl)c(-c5c(O)cccc5F)nc4n(-c4c(C)ccnc4C(C)C)c3=O)N2CC1C (centres unmarked) | – | SW837, mouse xenograft | oral, 100 mg/kg once daily | – | tumour regression | 114%
COc1ccc(C(=O)CCc2cc(C(CCc3ccc(O)cc3OC)c3ccc(O)cc3)c(O)cc2OC)cc1 (racemic) | – | human blood | 0.3 µM, together with: A23187 | – | 5-HEPE level | 110 ± 33 pg/mL
COC1CN([C@H]2CC[C@H]([C@@]3(C)Oc4c(Cl)cc(C(=O)NCc5c(SC)cc(C)[nH]c5=O)c(C)c4O3)CC2)C1 | RNA-seq, item: CFAP54 mouse homolog | mouse, HT-1376 xenograft, whole blood | dose not given | reference: vehicle | log2 fold change | 0.219
